Assay results of several laboratories.
Numbered parts are unrelated; each lists some results of a single study.

Sample 1
Target: Prothrombin, mature alpha-thrombin (F2, Homo sapiens, UniProt P00734)
Technique: aptamer microarray, sandwich
Form: DNA with 2'F-ANA
Medium: in vitro
Tested at: 200 nM
Notes: whole 15-mer aptamer, many near background
Together with: Cy3 exosite-II aptamer, 400 nM
Reading: higher = stronger binding
Measurement: mean fluorescence intensity
Oligonucleotide: GGTTGGTGTGGTTGG
2'F-ANA at 1 2 3 4 5 6 9 12 14 15: 53.1 a.u.
2'F-ANA at 1 3 4 10 13 14: 118 a.u.
2'F-ANA at 1 4 6 7 8 9 11 12 14: 59.3 a.u.
2'F-ANA at 1 5 9 10 11 12 14: 46.9 a.u.
2'F-ANA at 2 10 11 12: 178 a.u.
2'F-ANA at 3 5 6 9 10 11 12: 61.3 a.u.
2'F-ANA at 2 3 5 6 8 11 12 15: 166 a.u.
2'F-ANA at 1 3 4 8 12 14 15: 115 a.u.
2'F-ANA at 1 2 3 5 6 10 11 13 14 15: 50.7 a.u.
2'F-ANA at 3 4 5 6 7 8 10 11 14 15: 49 a.u.
2'F-ANA at 3 4 6 7 9 10 11 12: 246 a.u.
2'F-ANA at 4 5 7 13 15: 52.2 a.u.
2'F-ANA at 1 2 6 8 11 12 14: 61 a.u.
2'F-ANA at 2 3 4 7 11 15: 536 a.u.
2'F-ANA at 2 4 5 6 10 12 13: 48.3 a.u.
2'F-ANA at 1 2 3 4 5 13 14 15: 43.6 a.u.
2'F-ANA at 3 4 5 8 11 12: 196 a.u.
2'F-ANA at 1 2 3 4 5 6 7 8 9 10 11 14: 61.5 a.u.
2'F-ANA at 5 6 7 9 13: 52.6 a.u.
2'F-ANA at 1 3 4 5 8 9 11 14 15: 58.3 a.u.
2'F-ANA at 1 3 6 9 10 14 15: 59.8 a.u.
2'F-ANA at 1 2 3 6 9 12 13: 279 a.u.
2'F-ANA at 3 5 7 10 11 12 13: 63.7 a.u.
2'F-ANA at 2 3 4 6 7 8 10: 210 a.u.
2'F-ANA at 1 3 5 7 8 14 15: 45.1 a.u.

Sample 2
Target: Histone acetyltransferase KAT6A, winged helix 2, GST fusion (KAT6A, Homo sapiens, UniProt Q92794, residues 85-181)
Technique: protein binding microarray
Form: double-stranded DNA, one strand shown
Medium: in vitro
Tested at: not given
Notes: 8-mer, flanks averaged, mean of 2 arrays, mostly near background
Baseline: not given
Reading: higher = stronger binding
Measurement: E-score
Target sequence (chain): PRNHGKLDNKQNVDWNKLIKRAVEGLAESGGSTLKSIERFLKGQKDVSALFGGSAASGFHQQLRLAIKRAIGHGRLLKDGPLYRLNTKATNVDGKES
GTTCAAGA: 0.104
TATGGACA: -0.0673
GAACGACC: -0.116
CGCATTCC: -0.0241
AGGAGCTA: -0.139
AATTCTTG: -0.0472
TTATTGAA: -0.09
AAATCCCC: -0.0713
GAGTAAAC: 0.0194
AGTCTCAT: -0.212
GCGCTTCA: 0.104
AGGTTGGG: 0.103
ATGTGGTG: -0.191
CCTTTGTC: -0.0733
CAGATGCG: 0.104
GCGAAATA: 0.0806
GACCTGCA: -0.00434

Sample 3
Target: RNA binding protein fox-1 homolog 2, RRM domain, GST-SBP tag (RBFOX2, Homo sapiens, UniProt O43251-10, residues 100-194)
Technique: RNA Bind-n-Seq
Form: RNA
Medium: in vitro
Tested at: 365 nM
Notes: natural RNA segment, single round, ends assumed
Baseline: no-protein control
Reading: higher = stronger binding
Measurement: RBNS enrichment (R)
Constant ends, left off below: GGGAGUUCUACAGUCCGACGAUC … UGGAAUUCUCGGGUGCCAA
Residues (chain): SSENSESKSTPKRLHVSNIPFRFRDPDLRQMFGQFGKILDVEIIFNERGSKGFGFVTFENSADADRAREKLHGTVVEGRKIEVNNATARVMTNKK
ACUAUGUGUUAUACACUGCAUACACAUACUUCCUUUACCCAGAGAAAAGAAAUAAAAUUGAACCAAAGGAUUUUCCCAGAAAAAAACAAGAAAGCAGUUUUAGAAGGCCA: 0.749
CCCAGCCCCUGCGUUAAGGUCCCUGGAGAGGUGGCGUCAGUGGGGGUGAGGAAGGGCAUCUUCCUGACUCCUCUGCCCAGUGCUGGAAGGAGCAUGCCUGGGUUAGUGGG: 3.02
CUACAAAAAAAGUUUAUGUUUAGUUUGGUAGAGGUGUUAUGUAUAAUGCUUUGUUAAAGAACCCCCUUUCCGUGCCACUGGUGAAUAGGGAUUGAUGAAUGGGAAGAGUU: 2.2
CCUUCCAGACUUAAGAAUUUUAUGGCAUGGCCCAAUUGAUAUAAACAUUUAGAAGGAAAUGAAAAGCUAAAAUAGGAAGUAAUUAUUCCUCUAAAGAAACAUUUUGAGCA: 4.16
CUUCUUCCUCCUGUCCGUCUGAUUUACCUAACUUUGGUCUCGGCUGCUGACUCUUGGAGAGGACCAAAUUACUUUGUAGUAUUUCCCCCGUUUGUGUAAUGUCCUGAAAC: 1.22
CCUGCCACCUGGCAGGAGGCCCACUCACUGCCCAAGUCAUGGCAACAGGCUGGAGCAGCCCAGGAGAUGGGCCUAAAAUGUUCUGGAUCCCUUGGGUCCUAGUGUUAUGU: 0.186
AUAUAGUGUGCCAAUUUUGUGACUGUAAUCAUGUGAAAGCCCCAUUGAACCGAAGAAUUAUGUCUGCCCUACAAAUUGAUUUGUGUAAAAUAAAGUAUAACUAAAUCUCC: 2.94
UGGUGUGUGUAUUAGAAUCCCUUCCUGCCUUGUUUCAUGGCAGUGAAAUGCCUCUUGGUCCUGUCCAAGUGUAUCUUUCACUGAUUUCUGAAUCAUGUUCUAGUUGCUUG: 1.6

Sample 4
Target: RING finger protein unkempt homolog, zinc fingers 1-6, GST-SBP tag (UNK, Homo sapiens, UniProt Q9C0B0, residues 30-357)
UniProt Q9C0B0, sequence (30-357, looked up): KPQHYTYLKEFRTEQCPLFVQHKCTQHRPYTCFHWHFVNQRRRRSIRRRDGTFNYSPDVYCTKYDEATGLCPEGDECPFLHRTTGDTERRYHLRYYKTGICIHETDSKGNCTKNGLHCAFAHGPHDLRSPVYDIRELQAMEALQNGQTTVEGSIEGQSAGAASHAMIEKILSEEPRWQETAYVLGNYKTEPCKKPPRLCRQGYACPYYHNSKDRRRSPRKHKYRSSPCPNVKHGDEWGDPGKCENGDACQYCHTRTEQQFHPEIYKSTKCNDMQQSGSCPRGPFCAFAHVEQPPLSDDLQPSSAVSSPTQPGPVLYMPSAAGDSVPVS
Technique: RNA Bind-n-Seq
Form: RNA
Medium: in vitro
Tested at: not given
Notes: RNA with constant flanks, human-mouse chimeric sites, ends assumed
Baseline: input RNA pool
Reading: higher = stronger binding
Measurement: bound/input enrichment
Constant ends, left off below: GGGAGUUCUACAGUCCGACGAUC … CAACAGAGGAUUGAGCAUCA
CCAAUUGUGGAGCAGUACUUGAAGACAAAGAAAAAUUCUAAUAAUUUAAUCAUCAAGUACAUUAGCUGCCGCCUGCUGACACUCAUCGUUAUACUGUUGGCAUGUAUCUACCUGGGCUAU: 0.323 ratio
AAAGAGAAACUAAAGCAAACUGAUUGAAAGAGGAUUGGCAAAGAGAAAUUUCAUAGAAAACUAGGAUUUAUUAGCAAACAUGAGUUAUAUUCCAGAGCGUCUCAGAAACCCCAGCCAAAC: 12.7 ratio
GAAACAUUUAAAUUUAAAGAAGCUGUUGUUUUAGGGAGUACGGACUUUCUAGAAGAUGAUAUAGAGAAAAUUGUAGAAGAACUGGGAAAAGAGUAUAAGGGCAACGCCUACCAUCUGAUG: 3 ratio
GGAAUUGCUGAUUCAAGCAAGUUUGAAUAUCACAAUGUUAGCUUUCUAAUUCCAUAAAAGUACUUGGUUUUUACAGUUUAUAAUCUGACAUCACCCCAGCGCCAUUUGUAAAGAGCAACU: 0.451 ratio
ACACAAUAUGAGACCAACAGCAUGGACUUCAAAGUUGGGGCAGAUGGGACAGUCUUCGCCACUAGGGAGCUGCAGGUCCCCUCAGAGCAGGUGGCGUUCACGGUGACUGCAUGGGACAGC: 0.267 ratio
GGGUGGGUGGUCAUUGCCGUUUGAGCUGCUGAUUUUCAUGAGUCGCCUUCAAAACUCUCGUGUAGGGUUGACAAUGUGGGGGGGUGGGAAAUCUAGCUUAUUCUUUUAUUUUCAAGUCCA: 4.8 ratio
UCUUUAAAAAAAAAAUUACCUUUUCUGACAGUGCUUUCCCUCCCAUAGAUCCACGUUCACACUAGAAGAGCAAAGGCUUUGCACGGAGCUCAAACAUAAAAGAAAGAAAGAUUUCUGAGA: 2.83 ratio
AACAGAUUGUCUUUAAGGUCAACGUAGGAGAAUGCUGGGGUGAUCAUUGUUGCCCAUGUGCCUUCUGACUGAGCUUUAAUGCUGUUCCAUGUUACAUCUUUCCUUCAUUGCAUAUUUGUU: 0.131 ratio

Some of these lines once more (sample 2):
CGCATTCC: -0.0241
AGGAGCTA: -0.139
AATTCTTG: -0.0472
TTATTGAA: -0.09
